Published values pooled from the literature.
Numbered parts are unrelated; each lists some results of a single study. Substitutions count along the parent as printed.
Chain of UniProt O15294 (whole entry, looked up): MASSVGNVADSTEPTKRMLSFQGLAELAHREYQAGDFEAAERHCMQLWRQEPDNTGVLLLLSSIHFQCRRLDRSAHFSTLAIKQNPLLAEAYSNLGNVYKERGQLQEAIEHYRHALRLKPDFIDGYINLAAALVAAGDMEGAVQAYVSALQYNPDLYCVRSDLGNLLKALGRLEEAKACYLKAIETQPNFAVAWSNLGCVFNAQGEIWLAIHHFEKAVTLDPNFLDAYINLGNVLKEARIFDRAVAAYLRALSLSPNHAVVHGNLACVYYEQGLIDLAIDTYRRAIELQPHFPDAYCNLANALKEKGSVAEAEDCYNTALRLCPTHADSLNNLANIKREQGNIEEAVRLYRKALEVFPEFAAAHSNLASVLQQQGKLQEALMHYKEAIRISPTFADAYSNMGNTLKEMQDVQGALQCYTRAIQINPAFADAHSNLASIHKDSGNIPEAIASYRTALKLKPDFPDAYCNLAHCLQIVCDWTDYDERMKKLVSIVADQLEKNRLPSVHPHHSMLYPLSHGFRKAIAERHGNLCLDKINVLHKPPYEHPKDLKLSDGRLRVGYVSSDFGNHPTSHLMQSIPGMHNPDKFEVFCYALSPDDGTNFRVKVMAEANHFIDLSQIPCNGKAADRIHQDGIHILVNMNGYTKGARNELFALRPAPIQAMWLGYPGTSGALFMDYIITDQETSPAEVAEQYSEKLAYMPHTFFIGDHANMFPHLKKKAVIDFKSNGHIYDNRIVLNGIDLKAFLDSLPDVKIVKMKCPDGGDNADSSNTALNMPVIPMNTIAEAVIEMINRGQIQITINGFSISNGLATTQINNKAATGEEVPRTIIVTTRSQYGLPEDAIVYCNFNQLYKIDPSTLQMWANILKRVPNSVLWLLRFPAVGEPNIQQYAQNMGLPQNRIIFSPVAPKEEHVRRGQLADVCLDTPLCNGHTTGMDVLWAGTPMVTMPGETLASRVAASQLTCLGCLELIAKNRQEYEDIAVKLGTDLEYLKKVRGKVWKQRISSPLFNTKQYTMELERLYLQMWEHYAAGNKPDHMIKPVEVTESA

Study 1
Target: RNA binding protein fox-1 homolog 2, RRM domain, GST-SBP tag (RBFOX2, Homo sapiens, UniProt O43251-10, residues 100-194)
Method: RNA Bind-n-Seq
Molecule type: RNA
Medium: in vitro
Tested at: 365 nM
Setting: natural RNA segment, single round, ends assumed
Relative to: no-protein control
Direction: higher = stronger binding
All sequences stand within: GGGAGUUCUACAGUCCGACGAUC … UGGAAUUCUCGGGUGCCAA
Target sequence (chain): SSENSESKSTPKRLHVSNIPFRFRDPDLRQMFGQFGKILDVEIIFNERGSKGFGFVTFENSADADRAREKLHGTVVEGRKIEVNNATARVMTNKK
| Strand | RBNS enrichment (R) |
| --- | --- |
| GACGGCACAAGGUUUUCUGUAGGAAAGCUGCCAUUGCCCCGGCCCCUUUUCUUCCUUUGUCCCGUUGUCGAGGUUUUUUCAAAUAGCGUGUUGUUCAGUAUGCAAAUCAA | 0.492 |
| GGGCAACUUCCUGAGAUGAAUGAAGUACAGGAAAAUGAAAGAUUAGAGGGAUGUGUGACGGAAUACAGUAUUAGGGUUCACCAUAGCAGACUCUGCGCUUUAUCUGUCUA | 0.855 |
| UUUAAAAAGCAAAAUUAUAGAAGUUUAGAUUUUAAUCAAAUUUGUAGGGUUUCUAGGUAAUUUUUACAGAAUUGCUUGUUUGCUUCAACUGUCUCCUACCUCUGCUCUUG | 0.82 |
| UUUUUGGAAGGUGCCUAAUGCUUAGGAUAGUCUCUAGGGUGAUGCACUGCACCUGCUUCCUUCCCUUCAGUGCGGCCGACCCAUUUCUGUUGAACAGAUGUCUCCUGUGU | 0.914 |
| UGUGCCAGUUAUAGACUGUCCAGCAUCCAAGACGUUUCGGUUAUGUCGGGUCCUCAGAUCGCCUCUGACUUGUUACCACAACAAAUCAUUUUGAUUUCAGUGCCUGUUGG | 0.39 |
| GAGUUUAGCAACCUUCCAGUUACCUGCAGAGUUCUGGGUGCACAGCCACCCCUCAUAAGAGCCCUGUUCUCUGAAGACCAUUCAUAUGAGAACAAAGGUCUAGGAUACUG | 0.234 |
| CACUUGUUUCUGUGUAGGAGGUUGAGCUUGUCUUCCAAAAGCCAAGGCGAUGCUACACUGUCCUGUUCCCGAGAUACCUCGCCCUGAACAGAGAUAUAUUUUGUACAAAA | 0.275 |
| CUAGUUCAGAGCCCCCGUUCCCCAGGGUCCUGUGGGCUGAGCGGCUGGGGCUGGGGCUGCCCACGUGUGGCCUCCGCUGGCUCUGCCUGCUCCUGCAACAGUGCGGUCCC | 0.23 |

Study 2
Target: CCND1, cyclin fold, Cln2 fusion (human)
Method: yeast growth competition, sequencing
Medium: yeast
Setting: weak parent motif
Relative to: not given
Direction: higher = stronger binding
Starting sequence: ORC1 docking peptide (human); PRARKRLELGNLG
| Substitution | normalised enrichment score |
| --- | --- |
| R4H | 0.452 |
| N11Q | -0.509 |
| K5R L9F | 2.44 |
| P1S | -0.246 |
| E8F | 0.289 |
| L7R | 0.231 |
| K5R | -0.0437 |
| N11L | 0.19 |

Study 3
Target: FOSL1, bZIP domain (human)
Method: DHFR protein complementation
Medium: yeast
Setting: single substitutions, most at no-binding floor
Relative to: wild-type JUN-FOS pair
Direction: higher = stronger binding
Starting sequence: JUN, bZIP domain (human); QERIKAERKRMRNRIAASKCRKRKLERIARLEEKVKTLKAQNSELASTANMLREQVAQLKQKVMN; partner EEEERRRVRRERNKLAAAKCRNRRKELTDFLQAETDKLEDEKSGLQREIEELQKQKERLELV
| Substitution | binding fitness [natural log] |
| --- | --- |
| N42F | -1.35 |
| L52P | -1.35 |
| L59V | -1.28 |
| E32L | -0.39 |
| A40K | -0.287 |
| L31S | -1.21 |
| Q55K | -0.459 |
| V56F | -1.37 |

Single results of other studies
| Sequence | target | assay | test system | conditions | scale | endpoint | value |
| --- | --- | --- | --- | --- | --- | --- | --- |
| KFMPVYQIIAEMGAF | UDP-N-acetylglucosamine--peptide N-acetylglucosaminyltransferase 110 kDa subunit (OGT, Homo sapiens, UniProt O15294) | binding, phage display NGS | peptide | concentration not given, panning round 2 | relative to: input library | enrichment fold change | 9.38 |

Repeated from above (study 2):
| Substitution | normalised enrichment score |
| --- | --- |
| L7R | 0.231 |
| K5R | -0.0437 |
| N11L | 0.19 |
